Measurements of several laboratories.
Lines come from different studies, so protocols differ. Several values in a cell are separate wells, animals, samples, runs or records. ± gives the spread as reported. ≈ marks a conversion by molar mass, not a printed value.

`COc1ccc2ncc(F)c(C[C@H](O)[C@H]3OC[C@H](NCc4ccc5c(c4)OCCO5)CO3)c2c1` gave an IC50 of 27.3 µg/mL (≈ 58 µM) (THP-1; cytotoxicity).
The efflux ratio of `CN(C)C(=O)c1cncc(N2Cc3cn(Cc4ccc(F)cc4)nc3C2)n1` is reported as 3 (MDCK-MDR1; reference: B-A over A-B permeability).
`Cc1cc(C)nc(NC(=S)N2CCN(c3ccncc3)CC2)c1` has an EC50 of over 100 µM (MDA-MB-231; cell viability, CellTiter-Glo; 4 days).
`COc1ccc2ncc(F)c(C[C@H](O)[C@H]3OC[C@H](NCc4ccc(Cl)c(Cl)c4)CO3)c2n1` gave an IC50 of 21.4 µg/mL (≈ 44.4 µM) (THP-1; cytotoxicity).
With `CN1CCCNC(=O)c2cccc(c2)C(=O)NCCCN(C)CCCNc2cccc3c2C(=O)c2cccc(c2C3=O)NCCC1` the viability was 77.9% (NHEK; CCK-8; 0.15 µM, 48 h; reference: untreated).
`Cc1cccnc1-c1csc(C(=O)Nc2cc(Cl)cc(NS(C)(=O)=O)c2)c1` has a CC50 of over 10 µM (MCF-10A; cell growth or viability, ATP luminescence; 10 days).
With `Cc1cc(C)nc(NC(=S)N2CCN(c3ccc(C(F)(F)F)cn3)CC2)c1` the Papp A-B was 10 ± 1 ×10⁻⁶ cm/s (MDCK-MDR1).
With `CC(=O)OC[C@H]1O[C@@H]([Se]SC[C@H]2O[C@@H]3OC(C)(C)O[C@@H]3[C@H]3OC(C)(C)O[C@H]32)[C@H](OC(C)=O)[C@@H](OC(C)=O)[C@@H]1OC(C)=O` the viability was 35.5 ± 4.3% (THP-1 macrophages (PMA-differentiated); WST-1; 25 µM, 24 h).
For `COC1OC(C)C(OC2OC(C)C(O)C(OC3OC(C)C(OC4OC(C)C(O)C(OC5OC(C)C(OC6OC(C)C(O)C(OC7OC(C)C(OC8OC(C)C(O)C(OS(=O)(=O)O)C8OS(=O)(=O)O)C(OS(=O)(=O)O)C7OS(=O)(=O)O)C6OS(=O)(=O)O)C(OS(=O)(=O)O)C5OS(=O)(=O)O)C4OS(=O)(=O)O)C(OS(=O)(=O)O)C3OS(=O)(=O)O)C2OS(=O)(=O)O)C(OS(=O)(=O)O)C1OS(=O)(=O)O` (stereo not shown), the viability was 74% and 75.8% and 88.1% (RAW264.7; CCK-8; concentration not given, 24 h, medium concentration; reference: untreated cells).
`CC(=O)OC[C@H]1O[C@@H]([Se]C(C)=O)[C@H](OC(C)=O)[C@@H](OC(C)=O)[C@@H]1OC(C)=O` gave a CC50 of over 50 µM (THP-1; cell growth or viability, WST-1; 24 h).
The efflux ratio of `N#Cc1cccc(-c2ccc(=O)n(Cc3cccc(-c4ncc(OCC5CCN(CC(=O)N6CCN(c7ccc8c(c7)C(=O)N(C7CCC(=O)NC7=O)C8=O)CC6)CC5)cn4)c3)n2)c1` (stereo not shown) is reported as 0.88 (Caco-2; transwell monolayer; 2 µM, 120 min, pH 7.4, 0.1% DMSO, with: tariquidar 5 µM).
`Cc1ccc2c(c1)nc(NC(=O)c1cccc(C(F)(F)F)c1)n2[C@H]1CC[C@H](N)CC1` has a CC50 of 4.38 µM (NIH 3T3; cytotoxicity; 4 days, mean value).
The viability of `COC1OC(C)C(OS(=O)(=O)O)C(OC2OC(C)C(OS(=O)(=O)O)C(OC3OC(C)C(OS(=O)(=O)O)C(OC4OC(C)C(OS(=O)(=O)O)C(OC5OC(C)C(OS(=O)(=O)O)C(OC6OC(C)C(OS(=O)(=O)O)C(OC7OC(C)C(OS(=O)(=O)O)C(OC8OC(C)C(OS(=O)(=O)O)C(OS(=O)(=O)O)C8OS(=O)(=O)O)C7OS(=O)(=O)O)C6OS(=O)(=O)O)C5OS(=O)(=O)O)C4OS(=O)(=O)O)C3OS(=O)(=O)O)C2OS(=O)(=O)O)C1OS(=O)(=O)O` (stereo not shown) is reported as 105% and 103% and 102% (NIH 3T3; CCK-8; concentration not given, 24 h, low concentration; reference: untreated cells).
For `Cl.NCc1ccc2c(c1)CN(C1CCC(=O)NC1=O)C2=O` (stereo not shown), the minimum viability was 24.6% and 25% (Hep3B; concentration not given, 72 h).
`Cc1nc2ccc(F)cc2c2c1C1(C)CC2c2cc(F)ccc2N1` (stereo not shown) has a CC50 of over 400 µM (Huh-7; cell growth or viability, MTT).
`COc1ccc2ncc(F)c(C(O)C[C@H]3OC[C@H](NCc4ccc(Cl)c(Cl)c4)CO3)c2n1` (stereo partly shown) has an IC50 of 27.9 µg/mL (≈ 57.8 µM) (THP-1; cytotoxicity).
`CC(=O)OC[C@H]1O[C@@H]([Se]c2ccc([N+](=O)[O-])cc2[N+](=O)[O-])[C@H](OC(C)=O)[C@@H](OC(C)=O)[C@@H]1OC(C)=O` has a CC50 of over 25 µM (THP-1; cell growth or viability, WST-1; 24 h).
For `COc1ccc2ncc(F)c(CC[C@@]3(O)CO[C@@H]4[C@@H](NCc5ccc(Cl)c(Cl)c5)CO[C@@H]43)c2n1`, the IC50 was 22.8 µg/mL (≈ 44.8 µM) (THP-1; cytotoxicity).
The viability of `COC1OC(C)C(OS(=O)(=O)O)C(OC2OC(C)C(OS(=O)(=O)O)C(OC3OC(C)C(OS(=O)(=O)O)C(OC4OC(C)C(OS(=O)(=O)O)C(OC5OC(C)C(OS(=O)(=O)O)C(OC6OC(C)C(OS(=O)(=O)O)C(OC7OC(C)C(OS(=O)(=O)O)C(OC8OC(C)C(OS(=O)(=O)O)C(OC9OC(C)C(OS(=O)(=O)O)C(OC%10OC(C)C(OS(=O)(=O)O)C(OS(=O)(=O)O)C%10OS(=O)(=O)O)C9OS(=O)(=O)O)C8OS(=O)(=O)O)C7OS(=O)(=O)O)C6OS(=O)(=O)O)C5OS(=O)(=O)O)C4OS(=O)(=O)O)C3OS(=O)(=O)O)C2OS(=O)(=O)O)C1OS(=O)(=O)O` (stereo not shown) is reported as 103% and 107% (NIH 3T3; CCK-8; concentration not given, 24 h, medium concentration; reference: untreated cells).
